Assay results gathered from unrelated publications.
Values joined by “and” are separate records of one study, mostly repeats; a detail may differ. ± gives the spread as reported.
CNR1 I169A: Cannabinoid receptor 1 (CNR1, Homo sapiens, UniProt P21554, I169A)
UniProt P21554, sequence (whole entry, unmodified, looked up): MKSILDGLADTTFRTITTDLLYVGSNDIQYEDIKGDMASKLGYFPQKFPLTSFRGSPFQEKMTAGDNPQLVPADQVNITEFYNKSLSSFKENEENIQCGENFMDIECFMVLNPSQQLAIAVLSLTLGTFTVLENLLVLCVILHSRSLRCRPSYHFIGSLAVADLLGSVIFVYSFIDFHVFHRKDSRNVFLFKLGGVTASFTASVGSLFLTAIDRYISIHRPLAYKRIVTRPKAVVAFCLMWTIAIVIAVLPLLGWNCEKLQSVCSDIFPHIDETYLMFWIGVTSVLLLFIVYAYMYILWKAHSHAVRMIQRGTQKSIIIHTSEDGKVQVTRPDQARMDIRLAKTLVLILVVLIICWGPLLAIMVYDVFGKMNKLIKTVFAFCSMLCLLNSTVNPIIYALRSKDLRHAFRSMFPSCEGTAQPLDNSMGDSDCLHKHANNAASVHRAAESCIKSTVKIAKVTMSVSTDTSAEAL
UniProt P34975, sequence (whole entry, looked up): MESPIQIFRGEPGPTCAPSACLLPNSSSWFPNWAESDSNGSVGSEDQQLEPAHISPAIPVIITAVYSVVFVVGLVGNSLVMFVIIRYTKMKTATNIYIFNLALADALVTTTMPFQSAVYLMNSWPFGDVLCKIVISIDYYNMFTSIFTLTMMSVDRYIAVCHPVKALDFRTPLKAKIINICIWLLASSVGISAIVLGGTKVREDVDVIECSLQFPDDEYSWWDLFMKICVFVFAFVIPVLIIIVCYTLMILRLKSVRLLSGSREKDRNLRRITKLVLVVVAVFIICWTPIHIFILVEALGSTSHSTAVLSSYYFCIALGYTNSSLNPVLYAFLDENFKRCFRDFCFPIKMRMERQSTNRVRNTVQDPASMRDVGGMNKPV
UniProt P48736, sequence (whole entry, looked up): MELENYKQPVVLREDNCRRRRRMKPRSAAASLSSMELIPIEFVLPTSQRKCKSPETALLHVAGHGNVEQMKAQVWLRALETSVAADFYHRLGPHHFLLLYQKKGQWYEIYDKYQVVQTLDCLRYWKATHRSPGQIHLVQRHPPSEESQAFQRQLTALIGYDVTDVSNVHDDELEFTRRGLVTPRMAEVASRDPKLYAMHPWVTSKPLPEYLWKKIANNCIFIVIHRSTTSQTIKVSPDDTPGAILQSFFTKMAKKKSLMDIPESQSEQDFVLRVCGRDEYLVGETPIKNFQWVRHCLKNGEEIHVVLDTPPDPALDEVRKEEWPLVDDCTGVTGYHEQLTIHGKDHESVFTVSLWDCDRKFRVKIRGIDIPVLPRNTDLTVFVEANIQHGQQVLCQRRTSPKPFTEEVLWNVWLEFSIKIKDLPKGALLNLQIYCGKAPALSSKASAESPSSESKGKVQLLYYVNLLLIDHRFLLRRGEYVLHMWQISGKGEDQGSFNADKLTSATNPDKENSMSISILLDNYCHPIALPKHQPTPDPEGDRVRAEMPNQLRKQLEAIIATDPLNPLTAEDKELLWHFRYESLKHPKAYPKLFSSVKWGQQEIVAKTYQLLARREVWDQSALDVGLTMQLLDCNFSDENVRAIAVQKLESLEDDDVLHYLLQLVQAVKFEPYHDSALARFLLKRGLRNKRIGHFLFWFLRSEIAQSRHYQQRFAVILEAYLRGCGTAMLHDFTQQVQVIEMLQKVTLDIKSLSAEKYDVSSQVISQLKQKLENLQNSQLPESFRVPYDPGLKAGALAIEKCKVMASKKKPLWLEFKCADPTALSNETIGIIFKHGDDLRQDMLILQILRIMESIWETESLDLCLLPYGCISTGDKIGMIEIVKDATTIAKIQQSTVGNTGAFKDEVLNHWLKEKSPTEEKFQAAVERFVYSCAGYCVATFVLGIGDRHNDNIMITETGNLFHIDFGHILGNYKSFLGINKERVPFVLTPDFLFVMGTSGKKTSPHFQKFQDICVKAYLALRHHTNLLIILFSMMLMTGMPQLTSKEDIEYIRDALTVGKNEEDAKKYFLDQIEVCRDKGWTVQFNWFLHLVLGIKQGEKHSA
UniProt P9WGJ9, sequence (whole entry, looked up): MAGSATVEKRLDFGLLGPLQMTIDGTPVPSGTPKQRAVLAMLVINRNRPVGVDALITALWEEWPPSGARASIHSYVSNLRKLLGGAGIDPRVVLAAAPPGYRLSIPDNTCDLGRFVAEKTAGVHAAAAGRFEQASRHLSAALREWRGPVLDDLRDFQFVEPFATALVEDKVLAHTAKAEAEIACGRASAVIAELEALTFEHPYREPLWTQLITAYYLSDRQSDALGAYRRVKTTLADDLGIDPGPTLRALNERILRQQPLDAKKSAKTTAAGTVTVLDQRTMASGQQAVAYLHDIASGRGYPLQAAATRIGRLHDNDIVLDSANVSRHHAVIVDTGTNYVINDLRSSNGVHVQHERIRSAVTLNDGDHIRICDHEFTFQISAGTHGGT
UniProt O00329, sequence (whole entry, looked up): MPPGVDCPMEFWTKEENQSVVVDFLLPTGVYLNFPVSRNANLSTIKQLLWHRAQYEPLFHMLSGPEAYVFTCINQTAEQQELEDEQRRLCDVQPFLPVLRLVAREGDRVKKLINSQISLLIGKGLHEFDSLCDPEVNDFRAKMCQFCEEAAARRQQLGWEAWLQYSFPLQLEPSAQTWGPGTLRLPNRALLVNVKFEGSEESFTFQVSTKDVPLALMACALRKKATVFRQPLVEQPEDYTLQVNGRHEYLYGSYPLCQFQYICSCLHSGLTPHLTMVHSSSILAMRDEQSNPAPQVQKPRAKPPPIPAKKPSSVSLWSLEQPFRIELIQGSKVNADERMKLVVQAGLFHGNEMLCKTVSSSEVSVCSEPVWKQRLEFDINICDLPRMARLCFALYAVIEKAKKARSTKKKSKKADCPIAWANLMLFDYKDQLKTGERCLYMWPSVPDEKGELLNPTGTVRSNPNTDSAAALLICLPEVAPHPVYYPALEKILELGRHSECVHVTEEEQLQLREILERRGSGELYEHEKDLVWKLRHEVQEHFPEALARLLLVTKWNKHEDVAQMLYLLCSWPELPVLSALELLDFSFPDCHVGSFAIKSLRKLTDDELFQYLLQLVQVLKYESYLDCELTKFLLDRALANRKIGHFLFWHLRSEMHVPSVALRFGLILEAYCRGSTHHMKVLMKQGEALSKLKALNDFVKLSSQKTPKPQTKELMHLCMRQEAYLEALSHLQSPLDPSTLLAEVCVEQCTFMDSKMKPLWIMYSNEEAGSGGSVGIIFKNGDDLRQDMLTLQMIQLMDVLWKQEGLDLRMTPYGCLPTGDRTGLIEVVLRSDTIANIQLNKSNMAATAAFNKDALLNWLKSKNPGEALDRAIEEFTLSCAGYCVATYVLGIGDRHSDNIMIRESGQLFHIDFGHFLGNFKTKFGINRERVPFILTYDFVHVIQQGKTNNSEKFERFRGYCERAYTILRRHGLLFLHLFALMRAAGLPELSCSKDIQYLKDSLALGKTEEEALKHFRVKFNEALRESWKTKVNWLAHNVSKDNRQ
UniProt Q01959, sequence (whole entry, unmodified, looked up): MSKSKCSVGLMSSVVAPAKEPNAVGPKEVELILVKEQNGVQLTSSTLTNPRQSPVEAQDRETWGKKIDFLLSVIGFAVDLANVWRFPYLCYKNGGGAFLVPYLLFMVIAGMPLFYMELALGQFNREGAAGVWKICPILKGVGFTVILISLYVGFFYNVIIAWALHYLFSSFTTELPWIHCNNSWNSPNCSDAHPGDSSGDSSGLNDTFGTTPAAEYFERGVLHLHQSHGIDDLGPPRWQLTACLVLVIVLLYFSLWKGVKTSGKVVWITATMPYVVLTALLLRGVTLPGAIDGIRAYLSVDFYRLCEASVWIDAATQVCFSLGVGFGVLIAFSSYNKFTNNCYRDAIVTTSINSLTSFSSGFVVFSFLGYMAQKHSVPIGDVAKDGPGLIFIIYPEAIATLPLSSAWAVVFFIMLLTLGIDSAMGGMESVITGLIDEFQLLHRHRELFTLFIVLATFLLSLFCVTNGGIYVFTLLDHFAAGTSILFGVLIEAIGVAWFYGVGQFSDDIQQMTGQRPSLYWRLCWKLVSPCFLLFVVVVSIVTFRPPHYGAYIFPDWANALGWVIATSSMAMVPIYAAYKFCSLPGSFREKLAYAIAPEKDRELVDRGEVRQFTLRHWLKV
UniProt P25123, sequence (whole entry, looked up): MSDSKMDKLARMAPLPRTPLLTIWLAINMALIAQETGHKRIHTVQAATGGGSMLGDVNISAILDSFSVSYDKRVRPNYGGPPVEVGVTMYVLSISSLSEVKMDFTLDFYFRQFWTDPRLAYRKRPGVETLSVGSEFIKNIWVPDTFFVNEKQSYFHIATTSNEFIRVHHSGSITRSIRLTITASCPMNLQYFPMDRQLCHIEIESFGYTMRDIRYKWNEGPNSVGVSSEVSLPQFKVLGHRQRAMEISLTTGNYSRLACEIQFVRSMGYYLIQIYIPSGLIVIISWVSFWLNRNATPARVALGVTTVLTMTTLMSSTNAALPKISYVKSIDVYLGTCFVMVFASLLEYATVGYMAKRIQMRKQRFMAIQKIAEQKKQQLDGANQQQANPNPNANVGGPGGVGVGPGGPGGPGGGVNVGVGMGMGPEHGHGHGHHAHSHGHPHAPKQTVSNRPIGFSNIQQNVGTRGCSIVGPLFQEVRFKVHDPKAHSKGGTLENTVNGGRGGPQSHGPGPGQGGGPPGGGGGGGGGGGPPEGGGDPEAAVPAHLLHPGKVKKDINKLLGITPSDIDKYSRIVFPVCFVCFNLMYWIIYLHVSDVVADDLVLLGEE
UniProt Q13639, sequence (whole entry, looked up): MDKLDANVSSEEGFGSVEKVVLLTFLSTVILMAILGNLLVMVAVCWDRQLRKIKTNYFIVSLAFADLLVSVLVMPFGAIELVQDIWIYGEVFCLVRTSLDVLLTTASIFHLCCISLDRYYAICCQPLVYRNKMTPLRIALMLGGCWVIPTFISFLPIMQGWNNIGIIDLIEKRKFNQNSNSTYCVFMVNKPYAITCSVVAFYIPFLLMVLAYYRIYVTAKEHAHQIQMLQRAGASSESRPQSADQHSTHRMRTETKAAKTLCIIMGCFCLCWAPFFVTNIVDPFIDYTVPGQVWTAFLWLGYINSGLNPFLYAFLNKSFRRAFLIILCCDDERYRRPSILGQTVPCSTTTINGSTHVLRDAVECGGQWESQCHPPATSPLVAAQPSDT

Compound	tested on	assay	system	conditions	how to read	quantity	result
Nc1ccc(/C=C/C(=O)N2CCc3c(oc4c(-c5ccc(F)cc5)cc(-c5ccc(C(=O)N6CCC(F)(F)CC6)cn5)cc34)C2)cn1	Phosphatidylinositol 4,5-bisphosphate 3-kinase catalytic subunit gamma isoform (PIK3CG, Homo sapiens, UniProt P48736)	binding, competition with immobilised ligand		1 µM		remaining binding	90%
Cc1ccc(N(C)CCN2CCOCC2)cc1C(=O)N[C@H](C)c1cc(-c2cnn(C)c2)nc2ccccc12	Vero E6			250 µM		viability	55% and 36.7% and 32.9%
Cc1c(-c2ccc(N3CCCCC3)cc2)[nH]c2cc(F)cc(F)c2c1=O	cydA, with subunit CydB (Mycobacterium tuberculosis, UniProt L7N662)	inhibitor		110 nM		specific activity	8.5 ± 0.2 µmol/min/mg
CCCCCn1cc(C(=O)c2cccc3ccccc23)c2ccccc21	Cannabinoid receptor 1 (CNR1, Homo sapiens, UniProt P21554, F177A)	Gαi1 engagement, agonist, BRET			relative to: reference agonist at wild-type CB1	Emax	-4.2 ± 1.8%
O=[N+]([O-])CC(c1ccco1)c1c(-c2ccccc2)[nH]c2ccccc12 (stereo not drawn)	Cannabinoid receptor 1 (CNR1, Homo sapiens, UniProt P21554, I245F)	Gαi1-γ2 dissociation, BRET				Emax	130 ± 8.77%
CS(C)(=O)=Nc1ccc(-c2ccc(-c3nc4cc(O[C@@H]5CO[C@H]6[C@@H]5OC[C@H]6O)[nH]c4cc3F)cc2)cc1	5-hydroxytryptamine receptor 4, isoform 5-HT4e (HTR4, Homo sapiens, UniProt Q13639)	agonist response, agonist		10 µM	relative to: control agonist	activity	-9.7%
Cc1ccc2c(C(C[N+](=O)[O-])c3cccs3)c(-c3ccccc3)[nH]c2c1 (stereo not drawn)	CNR1 I169A	Gαi1-γ2 dissociation, BRET				Emax	95.6 ± 4.41%
CCCCCn1cc(C(=O)c2ccc3c(c2)CC(C)(C)C3)c2ccccc21	Cannabinoid receptor 1 (CNR1, Homo sapiens, UniProt P21554)	GαoA activation, agonist, BRET			relative to: reference agonist	Emax	3.7 ± 3.4%
CC(C)C[C@H](NC(=O)[C@@H](N)CO)C(=O)N[C@@H](CCC(=O)O)C(=O)N[C@H](C(=O)N[C@H](C(=O)N[C@@H](CCC(=O)O)C(=O)N[C@@H](C)C(=O)N[C@@H](CC(=O)O)C(=O)O)[C@@H](C)OP(=O)(O)O)C(C)C	Transcriptional regulatory protein EmbR (embR, Mycobacterium tuberculosis, UniProt P9WGJ9)	binding				kon	200 ± 40 M⁻¹ s⁻¹
COc1ccccc1C(C[N+](=O)[O-])c1c(-c2ccccc2)[nH]c2ccccc12 (stereo not drawn)	CNR1 I169A	Gαi1-γ2 dissociation, BRET				Emax	71.7 ± 2.06%
Cc1sc2c(c1C)C(c1ccc(Cl)cc1)=NC(CC(=O)OC(C)(C)C)c1nnc(C)n1-2 (stereo not drawn)	Kappa-type opioid receptor (Oprk1, Rattus norvegicus, UniProt P34975)	radioligand binding		1 µM		inhibition	3%
CCOCC1C(c2ccc(Cl)c(Cl)c2)CC2CCC1N2C (stereo not drawn)	Sodium-dependent dopamine transporter (SLC6A3, Homo sapiens, UniProt Q01959, S422A)	dopamine uptake		0.003 µM, 0.03333 h, S422A mutant, added: [3H]dopamine	relative to: no inhibitor	remaining activity	19.9%
CCCCCn1cc(C(=O)c2cccc3c2CC(C)(C)C3)c2ccccc21	Cannabinoid receptor 1 (CNR1, Homo sapiens, UniProt P21554, H178A)	Gαi1 engagement, agonist, BRET			relative to: reference agonist at wild-type CB1	Emax	81.9 ± 11.8%
CN(C)[C@H]1C[C@@]23CC[C@@]4(O2)C(=CC[C@]2(C)[C@@H](c5ccc6ccncc6c5)CC[C@H]24)C=C3[C@@H](O)[C@@H]1O	Phosphatidylinositol 4,5-bisphosphate 3-kinase catalytic subunit delta isoform (PIK3CD, Homo sapiens, UniProt O00329)	ATP probe labelling, inhibitor, KiNativ profiling		1 µM		inhibition	-8.9%
Cc1ccc(OCCN(C)C)cc1C(=O)N[C@H](C)c1cc(-c2cnn(C(F)F)c2)nc2ccccc12	Vero E6			31.25 µM		viability	15.8% and 12.1%
O=C1NC2(CC2)COc2ncc(F)cc2[C@H]2COCCN2c2ccn3ncc1c3n2			Sprague-Dawley rat, male, liver	oral, 2.5 mg/kg/day, 4 weeks, end of treatment		organ-to-body weight ratio	3.12 ± 0.132%
CC(C)CC(C(=O)N1CC2(CC1C#N)C(=O)Nc1ccccc12)N(C)C(=O)c1cc2c(F)cc(F)c(F)c2[nH]1 (stereo not drawn)	Replicase polyprotein 1ab, main protease (rep, Porcine epidemic diarrhea virus, UniProt P0C6Y4)	protease activity, inhibitor		10000 µM		remaining activity	0%
C=C(C)C1C2OC(=O)C1C1(O)CC3OC34C(=O)OC2C14C (stereo not drawn)	Rdl (Drosophila melanogaster, UniProt P25123)	ion current, inhibitor, two-electrode voltage clamp		IC50, added: GABA at EC50		time constant of onset	6.2 ± 1.3 s

A few entries again:
Compound	tested on	assay	system	conditions	how to read	quantity	result
Cc1ccc2c(C(C[N+](=O)[O-])c3cccs3)c(-c3ccccc3)[nH]c2c1 (stereo not drawn)	CNR1 I169A	Gαi1-γ2 dissociation, BRET				Emax	95.6 ± 4.41%
CCCCCn1cc(C(=O)c2ccc3c(c2)CC(C)(C)C3)c2ccccc21	Cannabinoid receptor 1 (CNR1, Homo sapiens, UniProt P21554)	GαoA activation, agonist, BRET			relative to: reference agonist	Emax	3.7 ± 3.4%
